Assay results from different studies.
Each numbered part is a random draw from the data of one study; scales do not carry over between parts. Changes are numbered by the printed parent chain.

Set 1 — technique: RNA Bind-n-Seq; molecule type: RNA; matrix: in vitro; tested at: 200 nM; notes: whole 134-nt RNA, ends assumed; added: 150 mM KCl; relative to: input library; reading: higher = stronger binding
Target: Ras GTPase-activating protein-binding protein 1, full length (G3BP1, Homo sapiens, UniProt Q13283)
Sequence of UniProt Q13283 (whole entry, looked up): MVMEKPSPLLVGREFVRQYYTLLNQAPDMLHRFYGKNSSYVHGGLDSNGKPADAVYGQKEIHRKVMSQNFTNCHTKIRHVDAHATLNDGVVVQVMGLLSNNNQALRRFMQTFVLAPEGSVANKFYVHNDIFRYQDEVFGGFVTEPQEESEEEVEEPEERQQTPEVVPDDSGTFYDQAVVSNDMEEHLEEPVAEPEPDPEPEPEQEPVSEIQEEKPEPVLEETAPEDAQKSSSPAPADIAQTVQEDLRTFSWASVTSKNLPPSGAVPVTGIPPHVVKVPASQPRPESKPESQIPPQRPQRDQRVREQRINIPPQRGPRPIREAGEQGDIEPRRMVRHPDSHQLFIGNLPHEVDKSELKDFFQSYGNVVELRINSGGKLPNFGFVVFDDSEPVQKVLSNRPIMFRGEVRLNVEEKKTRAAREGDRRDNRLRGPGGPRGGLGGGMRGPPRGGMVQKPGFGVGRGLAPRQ
Shared flanks, not repeated: GGGAGUUCUACAGUCCGACGAUC … UGGAAUUCUCGGGUGUCAAGG
| Oligonucleotide | log2 enrichment |
| --- | --- |
| AAGUCCUGUGCUACACAUCGUAUGUACCGAAUCGGAAAGGAAAAAGGUUUUUUUGGAAAGUAUUAUGUUACGCCGUUCGGAUCUGCACUU | -1.64 |
| UCCUGUGCUACACAUCGUAUGUACCGAAUCGGUUUUUUUGGUUUUUUUGGAAAAAAAGGAAAGUAUUAUGUUACGCCGUUCGGAUCUGCA | -0.884 |
| CUGUGCUACACAUCGUAUGUACCGAAUCGGGGAAAAAAAGGGGUUUGGGGAAAAAAAGGGGAAAGUAUUAUGUUACGCCGUUCGGAUCUG | -0.272 |
| UCCUGUGCUACACAUCGUAUGUACCGAAUCGGGGUUUUUGGGUUUUUGGGGUUUUUGGGAAAGUAUUAUGUUACGCCGUUCGGAUCUGCA | 0.107 |
| CUCAAGUCCUGUGCUACACAUCGUAUGUACCGAAUCGGUUUUUGGAGGAAAGGAAAGUAUUAUGUUACGCCGUUCGGAUCUGCACUUCCA | -0.385 |
| CCUCAAGUCCUGUGCUACACAUCGUAUGUACCGAAUCGGGGUGGGUGGGUGGAAAGUAUUAUGUUACGCCGUUCGGAUCUGCACUUCCAG | 1.51 |
| GUCCUGUGCUACACAUCGUAUGUACCGAAUCGGGUGGGUUUUUUUGGGAAAAAAAGGGAAAGUAUUAUGUUACGCCGUUCGGAUCUGCAC | -0.289 |
| CACAGACAACACGCACCCACACAGACACAGAGGGAAGUGGUUGGGAUGGGGACAGGGUGCACAGCAGGGCGGGGUAGGACCCCAGCCCCU | 1.91 |
| GGUGAUGGUCAACAAGCCUCAACUGCCUCUGCUACAACUGCCAAGUUCCCCGCGUCCCACCCUCCUCUAGGUGCUCCAAGGGACCACCGG | 0.292 |
| CACAGACAACACGCACCCACACAGACACAGAGGGAAGGGGUUGGGAUGGGGACAGUGUGCACAGCAGGGCGGGGUAGGACCCCAGCCCCU | 1.71 |

Set 2 — technique: competition protein-binding microarray; molecule type: double-stranded DNA, one strand shown; matrix: in vitro; tested at: 2 µM; added: Pho4 competitor, 0.05 µM; reading: higher = stronger binding; shared flanks, not repeated: … GTCTTGATTCGCTTGACGCTGCTG
Target: Centromere-binding protein 1, full length, His-tagged (CBF1, Saccharomyces cerevisiae, UniProt P17106, residues 1-351)
Sequence of UniProt P17106 (whole entry, looked up): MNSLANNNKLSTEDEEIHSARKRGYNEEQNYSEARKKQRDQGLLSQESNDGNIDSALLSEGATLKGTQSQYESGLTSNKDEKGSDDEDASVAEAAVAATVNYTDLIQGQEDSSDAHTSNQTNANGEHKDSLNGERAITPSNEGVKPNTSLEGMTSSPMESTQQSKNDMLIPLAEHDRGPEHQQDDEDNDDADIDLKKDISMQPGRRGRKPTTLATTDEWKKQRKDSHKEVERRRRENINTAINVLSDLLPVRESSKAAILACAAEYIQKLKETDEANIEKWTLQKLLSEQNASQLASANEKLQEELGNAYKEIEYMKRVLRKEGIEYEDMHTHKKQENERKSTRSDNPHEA
Notes: whole 60-bp probe, lowest competitor level
| Oligonucleotide | fluorescence intensity [a.u.] |
| --- | --- |
| CACACCCAATTTTTGCACGTGCTTTAATAGTAGTTT | 3570 |
| GGAGTTAAAGTCGACCACGGGTCCTTTGGAGCATAG | 85.9 |
| CGTCCTAGTGATTGGGGCGTGGGTGCCATGAGGAAG | 84.3 |
| TAAACCAAGTAAATGACGATGGGAGAAGCAGTACCC | 60.8 |
| CGGGGTTAAGTTTGACGGGTGGGTGGCTTGCAGCAG | 68.4 |
| GAGTGCTTGCAATATCACAGCGGTAGCTAGACTCGC | 54.5 |
| TTGACGCTGTGTCTCCTCGTGTGAAATCGCAGTACA | 67.9 |
| AAAGCGGTAATTTGCTAAGTGGGTGCAGATATCTAT | 64.8 |
| CTAACGAAGGTTTGCGATGTGGGTGACAAGCCAAGT | 71.7 |
| CAACGTATAGACCATCACGTGGTGAGTTTGAAGGGA | 3910 |
| CTGGAAGAGACCCACCATGTGGGATAGATCCCTGTA | 52.2 |
| AAATTACTAAGTTGTCACATCACTTACCCCGTATGA | 83.6 |
| AAAGCGGTAATTTGTATCGTGGGTGCAGATATCTAT | 89.3 |
| CATACCCAACCTTGACACGTGTTTTAAGATATTTGT | 1710 |
| GTCTCCACAGCTTTTGACATGACAATCTCGGCGCAA | 68 |
| AAATTACTAAGTTTTCACGTGCCCTACCCCGTATGA | 1390 |
| CTTTCCCGATCTTGGTTTGTGGGTGTAGCACATTTG | 77.5 |
| AAGAAATATCTGTGAAATGTGACGCTTATAGCATAC | 97.6 |
| CTAACGAAGGTTTGGCAAGTGGGTGACAAGCCAAGT | 63.7 |

Set 3 — target: CCNE2, cyclin fold, Cln2 fusion (human); technique: yeast growth competition, sequencing; matrix: yeast; notes: weak parent motif; relative to: not given; reading: higher = stronger binding
Parent: MASTL docking peptide (human); PMIAKNLMCELDE; partner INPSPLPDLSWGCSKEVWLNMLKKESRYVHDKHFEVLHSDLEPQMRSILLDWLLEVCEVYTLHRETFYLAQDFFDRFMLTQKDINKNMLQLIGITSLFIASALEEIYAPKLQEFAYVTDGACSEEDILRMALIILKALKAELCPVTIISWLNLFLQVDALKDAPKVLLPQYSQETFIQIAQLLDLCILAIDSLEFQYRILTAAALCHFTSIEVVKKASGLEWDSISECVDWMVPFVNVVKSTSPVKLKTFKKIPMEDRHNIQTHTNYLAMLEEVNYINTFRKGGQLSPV
| Variant | normalised enrichment score |
| --- | --- |
| M8D | -0.0513 |
| I3D | -0.444 |
| L7N | 0.0211 |
| A4E | -0.411 |
| A4N | 0.0165 |
| K5P | 0.0298 |
| I3T | -0.148 |
| L11D | -0.156 |
| M2I | -0.0383 |
| D12N | -0.168 |
| A4G | -0.327 |
| M2Y | 0.145 |
| K5S | -0.413 |
| C9L | -0.143 |
| M8R | -0.104 |
| M8C | -0.339 |
| C9M | 0.0367 |
| E10T | 0.0417 |
| L11N | -0.168 |
| E10W | 0.158 |
| E10A | -0.137 |
| E10R | 0.165 |
| L7I | -0.0164 |
| M8A | -0.165 |
| M2K | 0.259 |

Set 4 — technique: RNA Bind-n-Seq; molecule type: RNA; matrix: in vitro; tested at: 365 nM; relative to: no-protein control; reading: higher = stronger binding
Target: RNA binding protein fox-1 homolog 2, RRM domain, GST-SBP tag (RBFOX2, Homo sapiens, UniProt O43251-10, residues 100-194)
Notes: natural RNA segment, single round, ends assumed
Shared flanks, not repeated: GGGAGUUCUACAGUCCGACGAUC … UGGAAUUCUCGGGUGCCAA
Residues (chain): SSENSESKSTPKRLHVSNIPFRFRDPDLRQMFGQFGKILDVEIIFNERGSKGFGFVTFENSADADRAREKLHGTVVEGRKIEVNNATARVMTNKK
| Oligonucleotide | RBNS enrichment (R) |
| --- | --- |
| UGUCAUUUGGAAGGAUUUGCCAGGACAGACUGAUUCUGAGUCCUGGGUGCCGUAUGUGUAUGCGGCAGUGUUGUCAGGCGAUCUUGUUUGAAGCUCUAUGUUGCCAUAAU | 5.85 |
| UCCCGAUGCAUGGGAUCCAGUGCCCUCUUCUGAUCUCUAUGGGCAUCAGGCAUGCACACAGUACACUUAUAUACAUGCAGAAAAAAAUACUGAGACACAUGAAAUAAGAU | 6.29 |
| GUUUUAGUAUUUUCUACCUCUUAAUAAGCACCAUAUUUUAGAUCUUGUAUAAAAAGUUGCCAUCUGCCUUAUAGACAAAUGUAGAGAAUUGAUGUUCUUGCUUUGUGUUG | 0.777 |
| CAGGGAUGGCUGGCUGCUCAACACACUCCUCCUCCCCUUUUUUCCUUUCUUUAAGCUGUGUACAGUGAAAAUUGUCUUUACUGUAUUUUUGUUCUCUGGUAAUGUAAUAA | 0.806 |
| ACCCACUCCCUACAGUCCUCAGACCAAGGAGGGGUUUGGGUAGUAGGCCCGAGCUGCAUUGCCGGCCUUCCUCGGGCCAACUGGCAGCCCAGGAGUGGGGAGGCUUUGGC | 0.579 |
| UCAUUCCAAGCUAUCAUGCUCACGCCAUGUCAACAGCACCAUUUGUACUAAUGCUAAUAAUUCCAUCAAAAUUUGCCUGUGGAACAUAUAUUGUCCUUAACUUUAAGAUG | 0.711 |
| GGGAGGGCGCGCUGCUGGUCCACAUUGGCUCCAUGGGGGAGCCCUCCCCUUGAGUUGGGGCUGAUAUAGCAGGAGUGAAUCUUGUGGGGGAGUUUUUUUCCUCCACAUUU | 0.374 |
| UUUUUUUUUGUAAAUGUUCUGUAAAGAAAAAAUGUACAGUAAAUAAAGUGUUUUAUUUGUAGACUGACUACGACUUUUUUCUUCAUGGUGGGAUUUGUUGCUCUACUGCC | 0.445 |
| CCUGAGGCCAGAAGAUUCCCUAACCCAGGACUUUGAAGCCAACCUAGGCAACAUGAUGGGGACCCUCCCCAUUCUUCAUAAAAAUCCCCUCAAGAUCCUCAAGUUGAAUG | 0.292 |
| GACUUCCCACCAAUGUCUAAACUAUUGUAAAAUAGUAUGAUUCUUUAGCCGUGUUUUGACUGUCUAGUAUUUCUAAAUAUUUCUCUGUAUCCUGGAUGGUCUCAUAACGU | 0.344 |
| ACCAACCUGUUUUCUUCCUCACUUGAAAUUGUACUUUCUGAAAUUUCAAGCAAAUUAAAAACAAUAAGGUAGGAGGUAUUUCCCACGUCACCCCAAGGUGACCAGCCAUG | 0.301 |
| GGGAAAGGGAAGAGAUGGGGACAGCUGGUCCCAGGAGAUGCAGGCCCUUGCCUUAGGAUCCUGGUGCAGGUCCUAGUUGUUAUCUGCUCAGCCGGAGUUGAGAAGGAGUA | 1.32 |

A few entries again (set 2):
| Oligonucleotide | fluorescence intensity [a.u.] |
| --- | --- |
| AAATTACTAAGTTGTCACATCACTTACCCCGTATGA | 83.6 |
| AAAGCGGTAATTTGTATCGTGGGTGCAGATATCTAT | 89.3 |
| CATACCCAACCTTGACACGTGTTTTAAGATATTTGT | 1710 |
| GTCTCCACAGCTTTTGACATGACAATCTCGGCGCAA | 68 |
